Measurements from different studies.
Compare with care: the assays were run in different laboratories. Numbers after ± are the reported error.
Protein AF-9 with DOT1L: Protein AF-9, with DOT1L (Homo sapiens, UniProt P42568)
UniProt P42568, sequence (whole entry, looked up): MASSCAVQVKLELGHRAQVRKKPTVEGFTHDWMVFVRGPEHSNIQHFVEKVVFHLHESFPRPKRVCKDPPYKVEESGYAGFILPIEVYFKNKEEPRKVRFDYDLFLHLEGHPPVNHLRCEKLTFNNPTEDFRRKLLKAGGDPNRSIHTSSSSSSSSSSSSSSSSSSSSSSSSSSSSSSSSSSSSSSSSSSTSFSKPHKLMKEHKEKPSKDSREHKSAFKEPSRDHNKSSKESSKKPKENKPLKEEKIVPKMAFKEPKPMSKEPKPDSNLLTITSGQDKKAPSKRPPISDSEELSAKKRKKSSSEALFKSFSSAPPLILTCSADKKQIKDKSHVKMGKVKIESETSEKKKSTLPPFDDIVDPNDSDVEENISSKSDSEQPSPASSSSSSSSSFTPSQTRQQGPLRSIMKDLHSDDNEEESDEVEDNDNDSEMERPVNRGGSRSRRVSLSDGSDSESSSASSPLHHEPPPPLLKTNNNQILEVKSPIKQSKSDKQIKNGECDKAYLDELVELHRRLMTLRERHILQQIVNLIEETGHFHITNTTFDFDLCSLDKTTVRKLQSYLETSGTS
CSNK1D: Casein kinase I isoform delta (CSNK1D, Homo sapiens, UniProt P48730)
UniProt P48730, sequence (whole entry, looked up): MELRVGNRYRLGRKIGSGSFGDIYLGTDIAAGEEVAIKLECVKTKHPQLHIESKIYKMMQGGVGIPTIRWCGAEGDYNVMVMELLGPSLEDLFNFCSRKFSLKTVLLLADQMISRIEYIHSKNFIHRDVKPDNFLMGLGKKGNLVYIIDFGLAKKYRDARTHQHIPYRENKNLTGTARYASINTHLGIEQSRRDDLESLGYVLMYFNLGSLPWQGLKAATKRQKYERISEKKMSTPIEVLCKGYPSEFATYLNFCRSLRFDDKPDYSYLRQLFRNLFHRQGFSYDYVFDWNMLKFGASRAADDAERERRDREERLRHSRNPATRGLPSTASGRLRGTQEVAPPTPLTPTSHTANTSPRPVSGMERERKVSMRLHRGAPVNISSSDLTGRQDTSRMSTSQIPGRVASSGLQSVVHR
PSMB5: Proteasome Macropain subunit MB1 (PSMB5, Homo sapiens, UniProt P28074)
UniProt P28074, sequence (whole entry, looked up): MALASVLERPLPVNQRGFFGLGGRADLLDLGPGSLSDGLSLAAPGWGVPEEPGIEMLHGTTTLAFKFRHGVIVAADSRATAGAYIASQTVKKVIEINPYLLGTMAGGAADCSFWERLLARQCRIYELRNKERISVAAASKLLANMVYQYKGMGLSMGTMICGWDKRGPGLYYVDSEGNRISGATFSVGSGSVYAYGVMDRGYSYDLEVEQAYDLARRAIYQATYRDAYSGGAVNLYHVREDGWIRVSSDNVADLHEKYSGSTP
Proteasome component C5/PSMB5: Proteasome component C5/PSMB5 (Homo sapiens, UniProt P20618+P28074)
UniProt P20618, sequence (whole entry, looked up): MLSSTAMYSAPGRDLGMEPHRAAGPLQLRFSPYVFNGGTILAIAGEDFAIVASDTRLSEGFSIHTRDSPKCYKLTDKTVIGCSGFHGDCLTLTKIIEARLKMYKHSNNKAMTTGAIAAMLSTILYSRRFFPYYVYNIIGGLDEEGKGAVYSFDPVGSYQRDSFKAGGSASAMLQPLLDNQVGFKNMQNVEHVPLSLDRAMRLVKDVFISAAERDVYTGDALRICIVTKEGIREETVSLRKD
UniProt Q9NZQ7, sequence (whole entry, looked up): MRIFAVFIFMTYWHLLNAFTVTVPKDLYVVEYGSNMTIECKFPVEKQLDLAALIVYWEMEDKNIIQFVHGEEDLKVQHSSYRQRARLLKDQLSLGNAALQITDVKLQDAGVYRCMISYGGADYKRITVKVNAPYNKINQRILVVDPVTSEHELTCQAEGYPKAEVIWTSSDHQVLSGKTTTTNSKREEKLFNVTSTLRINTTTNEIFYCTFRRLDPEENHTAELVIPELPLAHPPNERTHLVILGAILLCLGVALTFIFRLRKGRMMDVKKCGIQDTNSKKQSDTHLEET
UniProt P35368, sequence (whole entry, looked up): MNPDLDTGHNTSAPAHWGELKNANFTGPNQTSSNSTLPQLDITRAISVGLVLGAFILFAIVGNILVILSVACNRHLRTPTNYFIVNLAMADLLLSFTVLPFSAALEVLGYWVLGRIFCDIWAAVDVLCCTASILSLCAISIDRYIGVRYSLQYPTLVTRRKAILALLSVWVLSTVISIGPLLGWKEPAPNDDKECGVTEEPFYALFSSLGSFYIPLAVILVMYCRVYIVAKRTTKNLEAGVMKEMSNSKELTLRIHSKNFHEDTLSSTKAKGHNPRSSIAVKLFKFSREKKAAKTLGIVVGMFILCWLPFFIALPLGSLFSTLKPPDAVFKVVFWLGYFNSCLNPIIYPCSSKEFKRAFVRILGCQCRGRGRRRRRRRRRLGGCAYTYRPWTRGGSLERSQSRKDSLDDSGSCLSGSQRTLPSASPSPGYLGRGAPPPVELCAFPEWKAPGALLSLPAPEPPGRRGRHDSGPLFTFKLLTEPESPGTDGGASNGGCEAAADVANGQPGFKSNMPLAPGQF
UniProt P05181, sequence (whole entry, looked up): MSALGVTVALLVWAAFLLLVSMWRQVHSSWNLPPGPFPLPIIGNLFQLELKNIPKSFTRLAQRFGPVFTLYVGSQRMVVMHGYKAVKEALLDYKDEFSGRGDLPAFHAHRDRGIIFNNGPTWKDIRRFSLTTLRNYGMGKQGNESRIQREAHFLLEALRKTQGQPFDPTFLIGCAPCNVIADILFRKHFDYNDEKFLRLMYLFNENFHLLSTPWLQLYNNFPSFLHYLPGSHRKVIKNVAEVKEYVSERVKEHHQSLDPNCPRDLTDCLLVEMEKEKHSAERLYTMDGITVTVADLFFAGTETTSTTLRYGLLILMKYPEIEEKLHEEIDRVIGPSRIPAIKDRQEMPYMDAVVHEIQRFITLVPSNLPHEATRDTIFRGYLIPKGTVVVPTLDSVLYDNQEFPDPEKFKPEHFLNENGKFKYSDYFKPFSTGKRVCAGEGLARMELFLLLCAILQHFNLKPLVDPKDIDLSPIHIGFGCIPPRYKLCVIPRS
UniProt P07949, sequence (whole entry, looked up): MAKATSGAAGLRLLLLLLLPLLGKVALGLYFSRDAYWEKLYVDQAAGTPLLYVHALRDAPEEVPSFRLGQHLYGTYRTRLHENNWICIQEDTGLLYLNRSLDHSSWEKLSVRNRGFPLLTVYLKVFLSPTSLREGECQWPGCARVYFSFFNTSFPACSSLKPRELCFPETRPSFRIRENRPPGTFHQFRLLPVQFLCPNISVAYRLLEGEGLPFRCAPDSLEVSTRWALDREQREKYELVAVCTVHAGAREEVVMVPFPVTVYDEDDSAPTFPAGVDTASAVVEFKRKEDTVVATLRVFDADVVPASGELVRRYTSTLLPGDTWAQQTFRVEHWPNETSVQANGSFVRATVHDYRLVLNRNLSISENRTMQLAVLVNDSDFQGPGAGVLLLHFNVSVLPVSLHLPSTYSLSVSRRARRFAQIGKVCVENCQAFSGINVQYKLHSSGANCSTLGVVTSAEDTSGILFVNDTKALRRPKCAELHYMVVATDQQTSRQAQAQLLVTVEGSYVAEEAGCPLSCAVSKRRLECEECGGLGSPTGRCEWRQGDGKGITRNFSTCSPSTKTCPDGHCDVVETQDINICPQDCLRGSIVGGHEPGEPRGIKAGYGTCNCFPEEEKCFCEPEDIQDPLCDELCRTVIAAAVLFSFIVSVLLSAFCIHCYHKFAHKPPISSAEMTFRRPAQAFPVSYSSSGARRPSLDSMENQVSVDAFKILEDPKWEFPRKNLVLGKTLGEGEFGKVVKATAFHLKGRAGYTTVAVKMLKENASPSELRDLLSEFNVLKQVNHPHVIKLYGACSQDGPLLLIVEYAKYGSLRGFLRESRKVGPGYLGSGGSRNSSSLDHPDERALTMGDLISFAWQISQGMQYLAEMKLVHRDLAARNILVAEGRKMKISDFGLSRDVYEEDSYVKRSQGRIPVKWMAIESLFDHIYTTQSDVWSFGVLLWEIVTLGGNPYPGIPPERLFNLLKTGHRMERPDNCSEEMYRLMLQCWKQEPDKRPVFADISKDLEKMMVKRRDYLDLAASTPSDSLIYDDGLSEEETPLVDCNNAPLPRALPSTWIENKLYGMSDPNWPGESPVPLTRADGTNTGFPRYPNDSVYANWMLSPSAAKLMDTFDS
UniProt O75530, sequence (whole entry, looked up): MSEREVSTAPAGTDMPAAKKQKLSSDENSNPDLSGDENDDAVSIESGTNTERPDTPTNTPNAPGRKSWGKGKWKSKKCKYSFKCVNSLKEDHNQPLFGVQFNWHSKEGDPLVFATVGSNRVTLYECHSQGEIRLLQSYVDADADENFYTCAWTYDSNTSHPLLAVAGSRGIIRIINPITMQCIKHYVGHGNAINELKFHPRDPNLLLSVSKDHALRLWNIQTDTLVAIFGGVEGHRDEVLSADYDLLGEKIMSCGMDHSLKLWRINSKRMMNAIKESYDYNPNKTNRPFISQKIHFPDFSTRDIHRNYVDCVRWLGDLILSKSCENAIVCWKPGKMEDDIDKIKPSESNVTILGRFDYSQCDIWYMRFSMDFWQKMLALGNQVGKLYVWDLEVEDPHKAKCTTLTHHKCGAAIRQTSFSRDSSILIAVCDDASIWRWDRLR
UniProt P00383, sequence (whole entry, looked up): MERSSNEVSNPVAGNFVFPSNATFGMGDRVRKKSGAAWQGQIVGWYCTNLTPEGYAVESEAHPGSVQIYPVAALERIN

Compound = CC1CC(C)CN(c2ccc(C=NNc3nc(-c4ccc(Cl)c(Cl)c4)cs3)cc2)C1 (stereo not drawn); tested on = alpha-glucosidase; assay = enzyme activity, inhibitor; conditions = with: p-nitrophenyl-alpha-D-glucopyranoside; measurement = IC50; value = 17.8 µM
Compound = O=C(/C=C/N1C[C@H]2C[C@@H]1CN2c1ccccn1)c1ccccc1O; tested on = HBL-1; conditions = 1 µM, 120 h; measurement = viability; value = 63.1%
Compound = CCOCC(=O)N1CCC[C@H](C(=O)NCc2nc(-c3ccc(C#N)cc3)cs2)C1; tested on = uncharacterized protein (Plasmodium falciparum, UniProt A0A5K1K7U1+Q8I261+Q8IJT1); assay = Suc-LLVY-AMC; conditions = with: WLW-vs 0.5 µM; measurement = IC50; value = 0.024 ± 0.009 µM
Compound = c1ccc(Oc2ccc(Nc3ccc4ncc(OCC5CCNCC5)nc4c3)cc2)cc1; tested on = Protein AF-9 with DOT1L; assay = DOT1L binding, AlphaLISA; measurement = IC50; value = 1.2 ± 0.22 µM
Compound = COCc1nn(Cc2ccc(Cn3ccccc3=O)cc2)cc1C(=O)NCc1cccc(OC)c1F; tested on = Prothrombin (F2, Homo sapiens, UniProt P00734); measurement = IC50; value = > 40 µM
Compound = CCn1c(-c2nc3cc(C(=O)N4CCC[C@@H](N)C4)cc(OC)c3n2C)cc2cccnc21; tested on = ADRA1B (Homo sapiens, UniProt P35368); assay = intracellular calcium, antagonist, luminescence; measurement = IC50; value = > 39.8 µM
Compound = Oc1c(-c2nc(-c3ccc(F)cc3)c(-c3ccncc3)[nH]2)ccc2ccccc12; tested on = CSNK1D; assay = inhibitor; measurement = IC50; value = 2.98 ± 0.193 µM
Compound = COc1ccc(-c2nc3ccc(C(=O)NCc4ccccc4)cc3[nH]2)cc1Br; tested on = Dihydrofolate reductase type 2 (Escherichia coli, UniProt P00383); assay = enzyme activity; conditions = pH 7; measurement = IC50; value = > 30 µM
Compound = COc1ccc(C[C@H](NC(=O)[C@H](C)NC(=O)CN2CCOCC2)C(=O)N[C@H](C(=O)[C@@]2(C)CO2)C2CCCCC2)cc1; tested on = PSMB5; assay = competitive ABPP; test system = Raji cell lysate; measurement = IC50; value = > 10 µM
Compound = CC(=O)C(=O)N(CC(C)C)NC(=O)[C@H](Cc1ccccc1)NC(=O)[C@H](CC(C)C)NC(=O)[C@H](CCc1ccccc1)NC(=O)CN1CCOCC1; tested on = Proteasome component C5/PSMB5; assay = β5 chymotrypsin-like activity, inhibitor; conditions = with: Suc-LLVY-AMC 100 µM; measurement = IC50; value = 9.9 ± 1.7 µM
Compound = Cc1ncc(C(=O)N[C@@H](CC(C)C)C(=O)N[C@@H](CC(C)C)C(=O)N[C@H](/C=C/S(C)(=O)=O)Cc2ccc(CN)cc2)s1; tested on = PSMB5; assay = competitive ABPP; test system = Raji cell lysate; measurement = IC50; value = > 10 µM
Compound = Nc1nc2c(ncn2[C@@H]2O[C@H](COP(=O)(O)OP(=O)(O)NP(=O)(O)O)[C@@H](O)[C@H]2O)c(=O)[nH]1; tested on = mRNA 5′-triphosphatase (Plasmodium falciparum, UniProt C0H484); assay = GTP hydrolysis, inhibitor, fluorescent phosphate sensor; measurement = IC50; value = 15.7 µM
Compound = Nc1ccccc1-c1nc(-c2ccc(F)cc2)c(-c2ccncc2)[nH]1; tested on = CSNK1D; assay = inhibitor; measurement = IC50; value = 2.47 ± 0.165 µM
Compound = O=C1Nc2ccccc2-c2cnc(NCc3c(F)ccc4c3CCO4)n3cnc1c23; tested on = EED (Homo sapiens, UniProt O75530); assay = binding, AlphaScreen; conditions = with: H3K27me3 peptide; measurement = IC50; value = 0.0195 ± 0.0005 µM
Compound = COc1ccc(NC(=O)Nc2ccccc2-c2nc(-c3ccoc3)n[nH]2)cc1; tested on = RET (Homo sapiens, UniProt P07949); assay = kinase activity, inhibitor; conditions = replicate two, with: 1 µM ATP, poly(Glu,Tyr); measurement = IC50; value = 17.4 µM
Compound = CCn1ncc(S(=O)(=O)N2C/C=C\CN3[C@H](CO)[C@@H](c4ccc(-c5cccc(C)c5C)cc4)[C@@H]3C2)c1C; tested on = IDE (Homo sapiens, UniProt P14735); assay = enzyme activity, inhibitor, fluorescence kinetic; conditions = with: Mca-RPPGFSAFK(Dnp)-OH substrate; measurement = EC50; value = 0.016 µM
Compound = NC(=O)c1ccc(I)c([N+](=O)[O-])c1; tested on = HBL-1; conditions = 0.5 µM, 120 h; measurement = viability; value = 124%
Compound = COc1nc(-c2cccc(-c3ccccc3)c2C)ccc1CNCCNC(=O)CCCCCCCCCCC(=O)N1CCN(CCNC(=O)c2cc3c(=O)n4cccc(C)c4nc3n(CCc3cccs3)c2=N)CC1; tested on = CD274 (Homo sapiens, UniProt Q9NZQ7); assay = binding, inhibitor, HTRF; measurement = IC50; value = 0.357 µM
Compound = c1ccc(-c2ccc(Oc3ccc4ncc(OCC5CCNCC5)nc4c3)cc2)cc1; tested on = Protein AF-9 with DOT1L; assay = DOT1L binding, AlphaLISA; measurement = IC50; value = ~10 µM
Compound = CC(C)C[C@H](NC(=O)[C@H](CCc1ccccc1)NC(=O)OCc1ccccc1)C(=O)N[C@@H](Cc1ccccc1)C(=O)NN(CC(C)C)C(=O)/C=C/C(=O)OCc1ccccc1; tested on = Proteasome component C5/PSMB5; assay = chymotrypsin-like activity, inhibitor; test system = human 20S proteasome; conditions = with: Suc-LLVY-AMC 100 µM; measurement = IC50; value = 0.9 ± 0.3 µM
Compound = CCc1oc2ccccc2c1C(=O)c1cc(I)c(O)c(I)c1; tested on = Cytochrome P450 2E1 (CYP2E1, Homo sapiens, UniProt P05181); assay = p-nitrophenol hydroxylation, inhibitor; test system = baculosomes; conditions = 10 min, with additive 100 µM; measurement = IC50; value = 49 µM
